Results pooled from the literature.
Each line is one published result; not all experiments were run side by side. ± gives the spread as reported.
CNR1: Cannabinoid receptor 1 (CNR1, Homo sapiens, UniProt P21554)
Sequence of UniProt P21554 (whole entry, unmodified, looked up): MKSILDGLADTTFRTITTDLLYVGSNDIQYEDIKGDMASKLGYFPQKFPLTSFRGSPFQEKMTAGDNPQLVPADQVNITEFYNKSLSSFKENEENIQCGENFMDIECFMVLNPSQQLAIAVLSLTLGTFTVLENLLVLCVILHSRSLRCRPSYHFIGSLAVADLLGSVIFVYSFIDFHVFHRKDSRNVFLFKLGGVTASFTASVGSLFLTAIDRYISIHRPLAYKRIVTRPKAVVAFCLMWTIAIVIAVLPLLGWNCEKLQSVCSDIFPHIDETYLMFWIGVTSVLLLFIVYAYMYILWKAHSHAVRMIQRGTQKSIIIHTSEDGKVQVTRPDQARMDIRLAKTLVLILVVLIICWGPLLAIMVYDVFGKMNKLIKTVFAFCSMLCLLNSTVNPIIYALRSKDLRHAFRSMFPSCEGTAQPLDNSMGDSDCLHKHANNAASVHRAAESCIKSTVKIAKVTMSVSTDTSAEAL

`CCCCCn1ccc(C(=O)NC(C)(C)c2ccc(C(N)=O)cc2)n1`: activity “inactive” (CNR1; agonist, calcium mobilization; CHO; concentration not given).
`Cc1cc(-c2ccc3ccccc3c2)nnc1NCCN1CCN(C)CC1` — result for antagonist activity: “negative” (CNR1; antagonist; concentration not given).
For `CCCCCn1ccc(C(=O)NC(C)(C)c2ccc(C#N)cc2)n1`, the Emax was 56% (CNR1; calcium signal, agonist, fluorescence).
`COC(=O)[C@@H](NC(=O)c1nn(Cc2ccc(F)cc2)c2cc(OCCCCN)ccc12)C(C)(C)C` has a maximal efficacy of 55% (CNR1; β-arrestin-2 recruitment, agonist, BRET).
`CCOC(=O)[C@](CC)(CCCSCCOCCOCCNC(=O)c1ccc(-c2c3ccc(=N)c(S(=O)(=O)O)c-3oc3c(S(=O)(=O)O)c(N)ccc23)c(C(=O)O)c1)NC(=O)c1ccc(C2CC2)c(Cc2ccc(F)cc2)n1` has an inhibition of 41% (CNR1; ligand displacement, radioligand; 10 µM).
For `COC(=O)[C@@H](NC(=O)c1nn(Cc2ccc(F)cc2)c2cc(OCCCCNC(N)=O)ccc12)C(C)(C)C`, the maximal efficacy was 89% (Cannabinoid receptor 1, with Gi1 (CNR1, Homo sapiens, UniProt P21554); GTP turnover, agonist, item: Gi1 Gα subtype).
`Cc1sc2c(c1C)C(c1ccc(Cl)cc1)=NC(CC(=O)OC(C)(C)C)c1nnc(C)n1-2` (stereo not drawn) gave a remaining binding of 100% (CNR1; ligand displacement, radioligand; 1 µM).
The Emax of `COc1ccccc1C(C[N+](=O)[O-])c1c(-c2ccccc2)[nH]c2ccccc12` (stereo not drawn) is reported as 39.4 ± 4.14% (Cannabinoid receptor 1, with Gi2 (CNR1, Homo sapiens, UniProt P21554); Gi2 dissociation, agonist, BRET).
With `CCCCCn1ccc(C(=O)NC(C)(C)c2ccccc2Cl)n1` the Emax was 79% (CNR1; calcium signal, agonist, fluorescence).
`C[C@H](NCc1ccc(-c2ccc(C(F)(F)F)cc2)cc1)C(N)=O` has an inhibition of -5% (CNR1; radioligand binding, SafetyScreen panel; 1 µM, species human, added: 2.0 nM [3H]SR141716A).
`CS(C)(=O)=Nc1ccc(-c2ccc(-c3nc4cc(O[C@@H]5CO[C@H]6[C@@H]5OC[C@H]6O)[nH]c4cc3F)cc2)cc1` gave an inhibition of 4% (CNR1; calcium signal, antagonist; 10 µM).
For `N[C@H](C(=O)N1CCCC1)C1CCN(c2nccc3c(-c4ncc(Cl)cc4Cl)cccc23)CC1`, the inhibition was 2% (CNR1; functional response, antagonist; 10 µM).
`CCCCCn1ccc(C(=O)NC(C)(C)c2ccc(CN)cc2)n1` has an Emax of 56% (CNR1; calcium signal, agonist, fluorescence).
`COc1ccc(F)cc1S(=O)(=O)Nc1cnc2c(c1)C(=O)NCCO2` has an inhibition of 7% (CNR1; ligand displacement, radioligand; 10 µM).
`CC(=O)Nc1ccc(C(C)(C)NC(=O)c2ccn(Cc3ccc(Cl)cc3)n2)c(Cl)c1` gave an Emax of 13% (CNR1; calcium signal, agonist, fluorescence).
For `CN[C@@H]1[C@H](O)[C@H](NC)[C@H]2O[C@]3(O)[C@H](O[C@@H]2[C@H]1O)O[C@H](C)C[C@H]3NC(=O)Cc1cc(Cl)ccn1`, the inhibition was -7% (CNR1; ligand displacement, radioligand; 10 µM).
`Cc1cc(Nc2nc(C[C@@]3(C(=O)O)CCN(Cc4cccc(Cl)c4F)[C@H](C)C3)cc(C)c2F)[nH]n1` gave an activation of -2.41% (CNR1; agonist; 10 µM).
`C/C(=N\OCCCN1CCCCC1)c1ccc(C(F)(F)F)cc1` has an inhibition of 27.1% (CNR1; antagonist, cAMP; 10 µM).
For `CCCCCn1cc(C(=O)c2ccc3c(c2)CC(C)(C)C3)c2ccccc21`, the Emax was 4 ± 1.4% (Cannabinoid receptor 1 (CNR1, Homo sapiens, UniProt P21554, F170A); Gαi1 engagement, agonist, BRET; baseline: reference agonist at wild-type CB1).
`Cc1ccc2c(C(C[N+](=O)[O-])c3cccs3)c(-c3ccccc3)[nH]c2c1` (stereo not drawn) has an Emax of 95.9 ± 3.25% (Cannabinoid receptor 1 (CNR1, Homo sapiens, UniProt P21554, N393A); G protein activation, agonist; 100%).
`C[C@@H]1COCCN1c1nc(NCc2cccnc2C(F)(F)F)c2cccnc2n1` gave an IC50 of > 100 µM (CNR1; binding; CEREP panel).

For quick reference, copied from above:
`C[C@H](NCc1ccc(-c2ccc(C(F)(F)F)cc2)cc1)C(N)=O` has an inhibition of -5% (CNR1; radioligand binding, SafetyScreen panel; 1 µM, species human, added: 2.0 nM [3H]SR141716A).
`CS(C)(=O)=Nc1ccc(-c2ccc(-c3nc4cc(O[C@@H]5CO[C@H]6[C@@H]5OC[C@H]6O)[nH]c4cc3F)cc2)cc1` gave an inhibition of 4% (CNR1; calcium signal, antagonist; 10 µM).
For `N[C@H](C(=O)N1CCCC1)C1CCN(c2nccc3c(-c4ncc(Cl)cc4Cl)cccc23)CC1`, the inhibition was 2% (CNR1; functional response, antagonist; 10 µM).
